Experimental data from different studies.
Every numbered part comes from another study and shows a few of its results, in no order. Several values in a cell are separate wells, animals, samples, runs or records.
Sequence of UniProt P23458 (whole entry, looked up): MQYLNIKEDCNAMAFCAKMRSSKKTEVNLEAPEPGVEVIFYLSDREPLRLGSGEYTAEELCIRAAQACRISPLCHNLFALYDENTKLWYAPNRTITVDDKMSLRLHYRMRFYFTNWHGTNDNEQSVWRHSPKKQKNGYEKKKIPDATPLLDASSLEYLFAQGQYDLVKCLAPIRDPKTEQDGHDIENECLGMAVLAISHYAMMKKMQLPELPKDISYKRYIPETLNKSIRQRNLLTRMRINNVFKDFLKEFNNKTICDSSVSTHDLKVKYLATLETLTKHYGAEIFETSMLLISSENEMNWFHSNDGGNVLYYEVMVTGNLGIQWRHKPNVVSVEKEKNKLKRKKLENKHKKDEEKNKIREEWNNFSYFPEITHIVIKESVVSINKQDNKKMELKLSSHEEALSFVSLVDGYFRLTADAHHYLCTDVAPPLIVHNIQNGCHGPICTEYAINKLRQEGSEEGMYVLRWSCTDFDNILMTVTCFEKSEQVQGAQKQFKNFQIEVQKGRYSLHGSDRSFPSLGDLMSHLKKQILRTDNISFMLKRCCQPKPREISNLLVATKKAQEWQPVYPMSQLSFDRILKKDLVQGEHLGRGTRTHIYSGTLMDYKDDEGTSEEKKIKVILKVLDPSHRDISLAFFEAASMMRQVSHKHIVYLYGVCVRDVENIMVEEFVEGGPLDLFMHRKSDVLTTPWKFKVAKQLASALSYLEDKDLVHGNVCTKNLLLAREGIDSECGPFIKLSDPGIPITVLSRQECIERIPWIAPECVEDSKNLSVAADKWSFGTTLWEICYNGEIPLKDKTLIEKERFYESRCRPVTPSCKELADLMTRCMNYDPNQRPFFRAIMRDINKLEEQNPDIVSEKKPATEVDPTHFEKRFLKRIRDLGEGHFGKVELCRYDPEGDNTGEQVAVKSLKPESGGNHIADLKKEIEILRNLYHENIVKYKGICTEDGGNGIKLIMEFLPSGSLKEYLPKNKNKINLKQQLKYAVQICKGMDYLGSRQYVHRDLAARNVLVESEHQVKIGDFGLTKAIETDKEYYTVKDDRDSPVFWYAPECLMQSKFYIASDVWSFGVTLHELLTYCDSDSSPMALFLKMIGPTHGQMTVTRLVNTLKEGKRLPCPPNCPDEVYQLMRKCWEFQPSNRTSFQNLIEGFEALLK
Sequence of UniProt P51957 (whole entry, looked up): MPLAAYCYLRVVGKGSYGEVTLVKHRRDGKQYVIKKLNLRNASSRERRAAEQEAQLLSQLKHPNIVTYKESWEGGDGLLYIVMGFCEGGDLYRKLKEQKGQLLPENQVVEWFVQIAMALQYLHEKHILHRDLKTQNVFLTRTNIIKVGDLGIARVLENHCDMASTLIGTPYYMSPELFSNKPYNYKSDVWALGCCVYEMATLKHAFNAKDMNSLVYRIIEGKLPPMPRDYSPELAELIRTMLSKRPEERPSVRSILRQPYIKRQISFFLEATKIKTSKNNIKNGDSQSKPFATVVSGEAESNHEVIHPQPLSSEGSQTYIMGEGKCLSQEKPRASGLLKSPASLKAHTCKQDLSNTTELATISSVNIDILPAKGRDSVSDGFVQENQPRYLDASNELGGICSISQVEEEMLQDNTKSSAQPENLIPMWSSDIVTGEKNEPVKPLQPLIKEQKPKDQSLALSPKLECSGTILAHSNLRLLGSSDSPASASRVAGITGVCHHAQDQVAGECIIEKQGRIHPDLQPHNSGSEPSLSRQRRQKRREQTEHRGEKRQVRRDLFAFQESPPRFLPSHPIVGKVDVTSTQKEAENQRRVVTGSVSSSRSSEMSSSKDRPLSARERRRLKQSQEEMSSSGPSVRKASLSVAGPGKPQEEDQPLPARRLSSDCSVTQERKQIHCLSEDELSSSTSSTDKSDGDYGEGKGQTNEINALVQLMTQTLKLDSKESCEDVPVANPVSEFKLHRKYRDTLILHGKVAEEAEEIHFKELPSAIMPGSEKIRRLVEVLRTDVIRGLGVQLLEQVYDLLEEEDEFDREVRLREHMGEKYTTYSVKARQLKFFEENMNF
Sequence of UniProt Q00532 (whole entry, looked up): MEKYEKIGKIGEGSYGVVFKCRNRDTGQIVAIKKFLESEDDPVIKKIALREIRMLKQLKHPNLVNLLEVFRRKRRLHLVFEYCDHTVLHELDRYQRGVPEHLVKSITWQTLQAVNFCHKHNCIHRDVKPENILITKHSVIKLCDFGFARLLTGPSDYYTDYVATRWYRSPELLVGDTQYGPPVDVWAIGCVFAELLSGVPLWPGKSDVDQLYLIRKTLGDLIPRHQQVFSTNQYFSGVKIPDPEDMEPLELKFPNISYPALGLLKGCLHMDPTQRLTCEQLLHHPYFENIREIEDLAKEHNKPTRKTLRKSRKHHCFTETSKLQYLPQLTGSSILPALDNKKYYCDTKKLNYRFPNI
Sequence of UniProt Q08881 (whole entry, looked up): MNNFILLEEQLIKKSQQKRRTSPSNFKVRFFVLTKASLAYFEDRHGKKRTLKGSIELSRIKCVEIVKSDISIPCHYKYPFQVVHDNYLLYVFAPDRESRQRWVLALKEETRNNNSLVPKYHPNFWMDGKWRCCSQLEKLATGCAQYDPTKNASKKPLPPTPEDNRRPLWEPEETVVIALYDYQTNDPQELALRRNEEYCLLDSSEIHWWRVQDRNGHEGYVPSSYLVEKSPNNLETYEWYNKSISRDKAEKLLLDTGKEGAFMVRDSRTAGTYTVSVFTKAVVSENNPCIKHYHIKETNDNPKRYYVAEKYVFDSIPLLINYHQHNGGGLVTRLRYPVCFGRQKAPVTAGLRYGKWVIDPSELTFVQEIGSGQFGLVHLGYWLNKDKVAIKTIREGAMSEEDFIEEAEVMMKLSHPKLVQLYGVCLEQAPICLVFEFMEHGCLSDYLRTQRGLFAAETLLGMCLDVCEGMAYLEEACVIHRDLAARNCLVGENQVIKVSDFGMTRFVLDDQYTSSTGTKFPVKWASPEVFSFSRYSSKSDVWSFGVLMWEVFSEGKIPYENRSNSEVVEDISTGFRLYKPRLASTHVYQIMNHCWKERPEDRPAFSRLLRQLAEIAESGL
Sequence of UniProt Q9HCP0 (whole entry, looked up): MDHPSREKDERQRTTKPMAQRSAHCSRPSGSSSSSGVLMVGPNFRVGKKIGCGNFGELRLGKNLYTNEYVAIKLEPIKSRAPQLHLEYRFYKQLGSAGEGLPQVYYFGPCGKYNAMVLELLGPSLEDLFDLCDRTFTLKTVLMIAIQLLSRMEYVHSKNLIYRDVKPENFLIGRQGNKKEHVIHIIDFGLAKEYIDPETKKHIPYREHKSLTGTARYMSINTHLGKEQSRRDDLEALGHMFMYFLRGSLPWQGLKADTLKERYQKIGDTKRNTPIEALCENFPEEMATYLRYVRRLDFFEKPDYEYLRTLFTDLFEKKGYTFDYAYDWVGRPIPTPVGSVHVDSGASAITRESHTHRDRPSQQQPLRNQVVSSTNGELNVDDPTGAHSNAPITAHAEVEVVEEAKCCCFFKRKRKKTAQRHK

Study 1
SMILES: Cc1ncsc1-c1ccc(C(CO)NC(=O)C2CC(O)CN2C(=O)C(C(C)C)n2cc(-c3ccc(COc4c(-c5c(C)c(F)cc6[nH]ncc56)c(C5CC5)cc5c(N6CC7CC6CN7)nc(OC6CCOCC6)nc45)cc3)nn2)cc1 (stereo not shown)
Method: qRT-PCR
Species: mouse, PK-59 xenograft
Matrix: tumour
Notes: unit not given
Endpoint: mRNA level
item: DUSP4; intravenous, 10 mg/kg, 2 h; reference: vehicle, same time point: 0.507 and 0.409 and 0.548
item: DUSP6; 30 mg/kg, 24 h; reference: vehicle: 0.035 and 0.04 and 0.0404 and 0.031 and 0.0354 and 0.0308
item: DUSP4; intravenous, 30 mg/kg, 144 h; reference: vehicle, same time point: 0.269 and 0.235
item: DUSP4; 10 mg/kg, 144 h; reference: vehicle: 0.467 and 0.88 and 0.602
item: MYC; intravenous, 30 mg/kg, 24 h; reference: vehicle, same time point: 0.0194 and 0.0257 and 0.0203
item: ETV4; intravenous, 30 mg/kg, 2 h; reference: vehicle, same time point: 0.0141 and 0.0203 and 0.0133
item: DUSP6; 30 mg/kg, 144 h; reference: vehicle: 0.244 and 0.246
item: ETV4; 30 mg/kg, 6 h; reference: vehicle: 0.919 and 0.785 and 0.509
item: ETV4; 10 mg/kg, 2 h; reference: vehicle: 1.23 and 1.31 and 0.691

Study 2
Cell line: HCC1569
Method: in-cell western
Item: CDK1 phospho-Thr14
Tested at: 370.37 nM
Endpoint: pCDK1 (Thr14) level
Cc1ccc(O)c(C)c1-c1cnc2[nH]c(-c3cnc(N)nc3)cc2c1C#N: 62.7% and 62.1%
Cc1ccc(O)c(C)c1-c1cnc2[nH]c(-c3cnc(N4CCC(CCN5CCN(c6ccc(NC7CCC(=O)NC7=O)cc6F)CC5)CC4)nc3)cc2c1C#N (stereo not shown): 131 RLU and 126 RLU
Cc1ncc(-c2cc3c(C(F)(F)F)c(-c4c(C)ccc(O)c4C)cnc3[nH]2)cn1: 26.9 RLU and 39.2 RLU
Cc1ccc(O)c(C)c1-c1cnc2[nH]c(-c3cnc(N4CCC5(CC4)CC(CN4CCN(c6ccc(NC7CCC(=O)NC7=O)cc6F)CC4)C5)nc3)cc2c1C#N (stereo not shown): 109 RLU and 117 RLU
Cc1ncc(-c2cc3c(C(N)=O)c(-c4c(C)ccc(O)c4C)cnc3[nH]2)cn1: 8.65 RLU and 12.9 RLU
Cc1ccc(O)c(C)c1-c1cnc2[nH]c(-c3cnc(N4CCC(CCN5CCN(c6ccc(N7CCC(=O)NC7=O)cc6F)CC5)CC4)nc3)cc2c1C#N: 72.8 RLU and 75.5 RLU
Cc1ncc(-c2cc3c(Cl)c(-c4c(C)ccc(O)c4C)cnc3[nH]2)cn1: 34.2 RLU and 25.4 RLU
Cc1ccc(O)c(C)c1-c1cnc2[nH]c(-c3cnc(N4CCC(CN5CCN(c6ccc7c(c6F)CN(C6CCC(=O)NC6=O)C7=O)CC5)CC4)nc3)cc2c1C#N (stereo not shown): 125 RLU and 117 RLU
Cc1ccc(O)c(C)c1-c1cnc2[nH]c(-c3cnc(N4CCC(CN5CCN(c6ccc7c(c6)CN(C6CCC(=O)NC6=O)C7=O)CC5)CC4)nc3)cc2c1C#N (stereo not shown): 91.5 RLU and 96.2 RLU

Study 3
Compound: O=C(Nc1ccccc1)Nc1cccc(Oc2ccc3nccn3n2)c1
Tested at: 1 µM
Endpoint: remaining activity
MAPKAPK2 (Homo sapiens, UniProt P49137): 100%
PRKCE (Homo sapiens, UniProt Q02156): 100%
CSNK1G1 (Homo sapiens, UniProt Q9HCP0): 100%
NEK4 (Homo sapiens, UniProt P51957): 100%
CDKL1 (Homo sapiens, UniProt Q00532): 88%
TSSK1B (Homo sapiens, UniProt Q9BXA7): 100%
TRPM6 (Homo sapiens, UniProt Q9BX84): 100%
ITK (Homo sapiens, UniProt Q08881): 98%
JAK1 (Homo sapiens, UniProt P23458); JH1 catalytic domain: 84%
MAPK8 (Homo sapiens, UniProt P45983): 100%
PIP4K2B (Homo sapiens, UniProt P78356); PIP5K2B construct: 85%

Study 4
SMILES: C[C@@H]1CN(c2ccc(-c3cc(C(=O)NCCOCCOCCOCCOCCOCCOCCNC(=O)/C=C/c4[nH]cc(C(=O)N[C@@H](CC(N)=O)c5ccc(F)c(Cl)c5)c4-c4ccc(Cl)cc4F)ccc3F)cc2NC(=O)c2ccc(F)cc2C(F)(F)F)C[C@H](C)N1C
Effect on: thermal unfolding
Method: differential scanning fluorimetry
Tested at: 5.5 µM
Direction: higher = more unfolded
Endpoint: SYPRO Orange fluorescence
WDR5: WD repeat-containing protein 5 (WDR5, Homo sapiens, UniProt P61964)
DCAF1: DDB1- and CUL4-associated factor 1 (DCAF1, Homo sapiens, UniProt Q9Y4B6)
Sequence of UniProt Q9Y4B6 (whole entry, looked up): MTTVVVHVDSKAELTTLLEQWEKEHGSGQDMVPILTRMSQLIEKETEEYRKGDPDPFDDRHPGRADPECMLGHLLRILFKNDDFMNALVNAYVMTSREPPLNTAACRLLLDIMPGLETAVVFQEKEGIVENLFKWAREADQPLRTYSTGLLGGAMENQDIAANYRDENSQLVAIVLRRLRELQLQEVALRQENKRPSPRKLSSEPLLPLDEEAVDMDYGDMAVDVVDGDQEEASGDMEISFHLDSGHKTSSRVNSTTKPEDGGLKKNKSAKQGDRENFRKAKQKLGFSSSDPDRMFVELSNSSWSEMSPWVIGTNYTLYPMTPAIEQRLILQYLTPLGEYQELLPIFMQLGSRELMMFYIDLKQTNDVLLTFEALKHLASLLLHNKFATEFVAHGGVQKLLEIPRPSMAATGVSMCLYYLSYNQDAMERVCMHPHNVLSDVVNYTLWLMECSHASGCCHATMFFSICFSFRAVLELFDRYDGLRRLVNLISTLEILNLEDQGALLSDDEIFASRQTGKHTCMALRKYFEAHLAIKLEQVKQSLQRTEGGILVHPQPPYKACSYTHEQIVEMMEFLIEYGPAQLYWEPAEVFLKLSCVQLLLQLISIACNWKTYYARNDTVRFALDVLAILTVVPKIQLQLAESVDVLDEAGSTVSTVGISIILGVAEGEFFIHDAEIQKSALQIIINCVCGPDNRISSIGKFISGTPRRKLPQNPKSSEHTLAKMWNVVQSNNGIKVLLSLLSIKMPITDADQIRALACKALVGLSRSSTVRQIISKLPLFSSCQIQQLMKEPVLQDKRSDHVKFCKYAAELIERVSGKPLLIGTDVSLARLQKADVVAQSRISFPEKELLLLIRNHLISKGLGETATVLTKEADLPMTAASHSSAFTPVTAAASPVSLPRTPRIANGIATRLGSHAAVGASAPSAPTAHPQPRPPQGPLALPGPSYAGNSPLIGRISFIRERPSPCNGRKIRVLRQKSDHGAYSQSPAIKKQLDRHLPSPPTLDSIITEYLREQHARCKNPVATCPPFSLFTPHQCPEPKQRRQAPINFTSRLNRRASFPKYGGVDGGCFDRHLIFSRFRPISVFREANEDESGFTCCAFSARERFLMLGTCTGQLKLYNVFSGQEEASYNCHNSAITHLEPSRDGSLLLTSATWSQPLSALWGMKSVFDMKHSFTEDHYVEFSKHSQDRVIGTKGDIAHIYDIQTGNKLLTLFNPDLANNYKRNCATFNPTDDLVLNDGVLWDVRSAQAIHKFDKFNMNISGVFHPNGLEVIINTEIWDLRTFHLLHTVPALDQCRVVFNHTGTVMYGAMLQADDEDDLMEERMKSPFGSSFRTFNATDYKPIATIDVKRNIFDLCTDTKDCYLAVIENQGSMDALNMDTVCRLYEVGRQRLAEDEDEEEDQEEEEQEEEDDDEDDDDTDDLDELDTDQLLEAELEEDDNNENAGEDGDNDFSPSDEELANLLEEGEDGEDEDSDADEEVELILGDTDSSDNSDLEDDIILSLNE
WDR5; 39.6 °C: 14100 a.u.
WDR5; 59.41 °C: 15600 a.u.
WDR5; 69.81 °C: 26600 a.u.
DCAF1; 68.81 °C: 49500 a.u.
WDR5; 89.21 °C: 56200 a.u.
WDR5; 42.4 °C: 14400 a.u.
WDR5; 60.41 °C: 15300 a.u.
DCAF1; 56.41 °C: 32000 a.u.
DCAF1; 63.01 °C: 53900 a.u.
WDR5; 69.61 °C: 26000 a.u.
WDR5; 40.2 °C: 14200 a.u.

Repeated from above (study 4):
DCAF1; 63.01 °C: 53900 a.u.
DCAF1; 68.81 °C: 49500 a.u.
WDR5; 42.4 °C: 14400 a.u.
DCAF1; 56.41 °C: 32000 a.u.
WDR5; 69.61 °C: 26000 a.u.
WDR5; 60.41 °C: 15300 a.u.
